Published values from different studies.
Every numbered part comes from another study and shows a few of its results, in no order. Values joined by “and” are separate records of one study, mostly repeats; a detail may differ.
Sequence of UniProt P42336 (whole entry, unmodified, looked up): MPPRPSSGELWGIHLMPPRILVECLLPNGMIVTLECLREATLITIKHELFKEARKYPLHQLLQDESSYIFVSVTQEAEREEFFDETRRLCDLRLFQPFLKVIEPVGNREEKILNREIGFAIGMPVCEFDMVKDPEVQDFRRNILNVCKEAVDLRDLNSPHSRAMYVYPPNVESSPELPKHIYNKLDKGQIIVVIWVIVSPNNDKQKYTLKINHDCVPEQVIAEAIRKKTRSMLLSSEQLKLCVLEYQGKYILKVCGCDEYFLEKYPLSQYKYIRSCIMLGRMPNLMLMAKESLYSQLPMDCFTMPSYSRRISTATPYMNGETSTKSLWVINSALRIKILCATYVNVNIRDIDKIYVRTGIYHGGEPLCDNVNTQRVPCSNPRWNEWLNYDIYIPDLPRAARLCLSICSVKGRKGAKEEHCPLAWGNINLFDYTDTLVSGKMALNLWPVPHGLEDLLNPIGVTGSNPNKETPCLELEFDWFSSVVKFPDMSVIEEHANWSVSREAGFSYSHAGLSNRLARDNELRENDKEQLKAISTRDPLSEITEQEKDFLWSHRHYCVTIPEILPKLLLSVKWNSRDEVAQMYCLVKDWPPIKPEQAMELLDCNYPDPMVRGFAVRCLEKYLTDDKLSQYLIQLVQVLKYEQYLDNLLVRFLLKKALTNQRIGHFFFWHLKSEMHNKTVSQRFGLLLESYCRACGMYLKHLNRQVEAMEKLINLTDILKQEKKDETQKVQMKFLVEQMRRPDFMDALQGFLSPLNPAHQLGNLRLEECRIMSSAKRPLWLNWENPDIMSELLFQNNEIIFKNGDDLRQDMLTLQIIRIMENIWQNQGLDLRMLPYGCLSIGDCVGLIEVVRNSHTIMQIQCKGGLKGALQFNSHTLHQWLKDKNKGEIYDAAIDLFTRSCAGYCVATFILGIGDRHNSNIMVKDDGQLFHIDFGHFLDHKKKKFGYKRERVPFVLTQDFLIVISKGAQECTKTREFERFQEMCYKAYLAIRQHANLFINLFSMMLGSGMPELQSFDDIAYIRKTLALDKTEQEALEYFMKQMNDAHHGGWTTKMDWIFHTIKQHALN
Sequence of UniProt Q9BZL6 (whole entry, looked up): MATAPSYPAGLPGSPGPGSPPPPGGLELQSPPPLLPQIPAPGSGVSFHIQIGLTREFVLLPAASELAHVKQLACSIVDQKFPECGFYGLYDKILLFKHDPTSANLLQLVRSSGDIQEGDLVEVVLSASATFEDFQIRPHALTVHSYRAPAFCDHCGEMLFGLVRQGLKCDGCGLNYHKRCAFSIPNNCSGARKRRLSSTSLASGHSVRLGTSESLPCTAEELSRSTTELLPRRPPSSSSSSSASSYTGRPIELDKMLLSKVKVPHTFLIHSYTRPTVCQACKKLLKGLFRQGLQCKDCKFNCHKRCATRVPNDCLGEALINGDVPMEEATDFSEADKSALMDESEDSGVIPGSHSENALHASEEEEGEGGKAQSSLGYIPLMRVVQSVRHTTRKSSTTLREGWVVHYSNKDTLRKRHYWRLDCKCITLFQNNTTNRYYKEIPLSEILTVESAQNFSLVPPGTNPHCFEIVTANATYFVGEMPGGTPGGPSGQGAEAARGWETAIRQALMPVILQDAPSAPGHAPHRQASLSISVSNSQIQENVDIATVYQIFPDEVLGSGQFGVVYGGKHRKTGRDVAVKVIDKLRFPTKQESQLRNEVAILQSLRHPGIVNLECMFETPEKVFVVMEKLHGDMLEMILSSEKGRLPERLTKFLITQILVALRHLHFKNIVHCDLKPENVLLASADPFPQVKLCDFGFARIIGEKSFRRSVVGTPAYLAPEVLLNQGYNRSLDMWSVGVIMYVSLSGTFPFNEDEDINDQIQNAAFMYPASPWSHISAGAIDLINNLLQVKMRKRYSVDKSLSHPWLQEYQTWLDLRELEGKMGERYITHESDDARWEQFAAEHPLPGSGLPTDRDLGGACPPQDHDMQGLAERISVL
Sequence of UniProt P32298 (whole entry, looked up): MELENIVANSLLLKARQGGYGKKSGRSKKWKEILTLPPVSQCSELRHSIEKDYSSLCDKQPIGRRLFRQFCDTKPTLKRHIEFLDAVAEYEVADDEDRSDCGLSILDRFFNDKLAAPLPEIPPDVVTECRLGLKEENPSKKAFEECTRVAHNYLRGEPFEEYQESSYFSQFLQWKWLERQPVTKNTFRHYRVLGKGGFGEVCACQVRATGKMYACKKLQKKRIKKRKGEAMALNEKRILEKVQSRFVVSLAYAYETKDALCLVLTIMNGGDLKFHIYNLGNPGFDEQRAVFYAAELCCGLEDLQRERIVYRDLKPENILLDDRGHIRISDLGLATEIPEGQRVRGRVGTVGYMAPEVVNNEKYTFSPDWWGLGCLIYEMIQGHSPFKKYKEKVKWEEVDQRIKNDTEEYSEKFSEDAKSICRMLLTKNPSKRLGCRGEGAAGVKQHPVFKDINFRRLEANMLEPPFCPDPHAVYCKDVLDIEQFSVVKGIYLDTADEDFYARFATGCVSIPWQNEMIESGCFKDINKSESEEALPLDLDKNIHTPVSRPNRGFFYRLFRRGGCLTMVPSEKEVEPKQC
Sequence of UniProt P53778 (whole entry, looked up): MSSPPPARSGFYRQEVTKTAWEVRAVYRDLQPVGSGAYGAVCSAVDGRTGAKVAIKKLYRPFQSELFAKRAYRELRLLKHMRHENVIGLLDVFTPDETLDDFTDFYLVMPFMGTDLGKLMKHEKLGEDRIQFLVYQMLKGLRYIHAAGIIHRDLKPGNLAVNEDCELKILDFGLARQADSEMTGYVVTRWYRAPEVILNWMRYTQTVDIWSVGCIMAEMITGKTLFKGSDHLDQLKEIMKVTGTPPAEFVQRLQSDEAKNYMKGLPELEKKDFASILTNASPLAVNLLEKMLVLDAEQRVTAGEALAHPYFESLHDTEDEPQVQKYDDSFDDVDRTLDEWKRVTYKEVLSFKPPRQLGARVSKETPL
Sequence of UniProt Q96RR4 (whole entry, looked up): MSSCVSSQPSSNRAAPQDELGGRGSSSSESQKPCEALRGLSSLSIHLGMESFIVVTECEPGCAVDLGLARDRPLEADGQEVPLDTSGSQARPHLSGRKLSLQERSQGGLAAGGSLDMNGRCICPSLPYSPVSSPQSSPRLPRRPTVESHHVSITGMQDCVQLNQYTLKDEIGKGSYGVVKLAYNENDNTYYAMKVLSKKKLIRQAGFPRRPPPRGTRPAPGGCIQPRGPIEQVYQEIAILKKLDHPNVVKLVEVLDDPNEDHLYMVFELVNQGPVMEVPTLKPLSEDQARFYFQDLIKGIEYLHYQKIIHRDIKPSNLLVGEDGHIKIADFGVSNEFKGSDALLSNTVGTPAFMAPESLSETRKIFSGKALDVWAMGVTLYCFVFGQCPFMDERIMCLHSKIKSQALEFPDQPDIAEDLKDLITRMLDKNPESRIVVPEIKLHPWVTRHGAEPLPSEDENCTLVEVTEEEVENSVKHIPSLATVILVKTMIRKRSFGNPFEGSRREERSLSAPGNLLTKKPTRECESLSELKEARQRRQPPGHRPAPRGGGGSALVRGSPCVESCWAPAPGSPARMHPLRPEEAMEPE
Sequence of UniProt P06239 (whole entry, looked up): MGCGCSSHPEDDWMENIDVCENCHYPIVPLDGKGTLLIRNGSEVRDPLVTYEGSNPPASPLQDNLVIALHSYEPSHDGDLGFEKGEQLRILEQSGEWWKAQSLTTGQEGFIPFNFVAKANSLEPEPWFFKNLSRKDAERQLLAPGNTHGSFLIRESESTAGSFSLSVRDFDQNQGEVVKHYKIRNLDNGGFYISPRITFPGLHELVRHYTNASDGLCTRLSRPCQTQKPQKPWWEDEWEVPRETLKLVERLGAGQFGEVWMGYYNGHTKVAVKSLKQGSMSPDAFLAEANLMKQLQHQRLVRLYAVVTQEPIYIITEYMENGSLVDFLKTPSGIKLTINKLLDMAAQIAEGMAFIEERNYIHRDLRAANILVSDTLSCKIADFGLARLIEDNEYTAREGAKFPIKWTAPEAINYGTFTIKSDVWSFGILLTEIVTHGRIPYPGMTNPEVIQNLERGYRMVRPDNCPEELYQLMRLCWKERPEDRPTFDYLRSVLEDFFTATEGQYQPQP
Sequence of UniProt Q00535 (whole entry, looked up): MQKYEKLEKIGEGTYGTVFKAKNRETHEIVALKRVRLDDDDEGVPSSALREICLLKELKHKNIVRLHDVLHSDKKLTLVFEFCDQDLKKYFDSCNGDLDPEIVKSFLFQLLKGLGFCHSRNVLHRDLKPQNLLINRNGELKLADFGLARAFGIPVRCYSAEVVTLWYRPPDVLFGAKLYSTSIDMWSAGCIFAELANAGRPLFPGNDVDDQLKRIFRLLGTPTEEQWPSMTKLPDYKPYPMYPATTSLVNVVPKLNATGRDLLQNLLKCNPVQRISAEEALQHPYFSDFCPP

Study 1
Compound: COc1ccc(S(=O)(=O)N(CCO)c2ccccc2CN(C)CC=Cc2ccc(Cl)cc2)cc1
Effect on: enzyme activity
Action: inhibitor
Concentration: 0.5 µM
Reference: control
| target | remaining activity [%] |
| --- | --- |
| Cyclin-dependent kinase 5, with p25 (CDK5, Homo sapiens, UniProt Q00535) | 97.7 |
| Serine/threonine-protein kinase OSR1 (OXSR1, Homo sapiens, UniProt O95747) | 106 |
| TGF-beta receptor type-1 (TGFBR1, Homo sapiens, UniProt P36897) | 101 |
| Calcium/calmodulin-dependent protein kinase kinase 2 (CAMKK2, Homo sapiens, UniProt Q96RR4) | 90.7 |
| Protein kinase C alpha type (PRKCA, Homo sapiens, UniProt P17252) | 98.2 |
| STE20/SPS1-related proline-alanine-rich protein kinase (STK39, Homo sapiens, UniProt Q9UEW8) | 92.8 |

Study 2
Compound: Cc1nc(C2CCN(C(=O)c3ccc(OC(F)(F)F)cc3N)CC2)c2ncc(N3CCN(C)CC3)cc2n1
Effect on: cell-free assay
Technique: competition with immobilised ligand
Concentration: 1 µM
| target | remaining binding [%] |
| --- | --- |
| Tyrosine-protein kinase ABL1, phosphorylated (ABL1, Homo sapiens, UniProt P00519, F317L) | 97 |
| Mitogen-activated protein kinase 12 (MAPK12, Homo sapiens, UniProt P53778) | 100 |
| Mitogen-activated protein kinase 10 (MAPK10, Homo sapiens, UniProt P53779) | 100 |
| Tyrosine-protein kinase Lck (LCK, Homo sapiens, UniProt P06239) | 100 |
| Phosphatidylinositol 4,5-bisphosphate 3-kinase catalytic subunit gamma isoform (PIK3CG, Homo sapiens, UniProt P48736) | 79 |
| Serine/threonine-protein kinase D1 (PRKD1, Homo sapiens, UniProt Q15139) | 79 |
| Phosphatidylinositol 4,5-bisphosphate 3-kinase catalytic subunit alpha isoform (PIK3CA, Homo sapiens, UniProt P42336, C420R) | 86 |
| Mitogen-activated protein kinase kinase kinase 9 (MAP3K9, Homo sapiens, UniProt P80192) | 97 |
| Dual specificity protein kinase CLK3 (CLK3, Homo sapiens, UniProt P49761) | 94 |
| Serine/threonine-protein kinase SIK3 (SIK3, Homo sapiens, UniProt Q9Y2K2) | 91 |
| Serine/threonine-protein kinase mTOR (MTOR, Homo sapiens, UniProt P42345) | 78 |
| G protein-coupled receptor kinase 4 (GRK4, Homo sapiens, UniProt P32298) | 96 |
| Proto-oncogene tyrosine-protein kinase receptor Ret (RET, Homo sapiens, UniProt P07949) | 100 |
| Serine/threonine-protein kinase D2 (PRKD2, Homo sapiens, UniProt Q9BZL6) | 92 |
| NUAK family SNF1-like kinase 2 (NUAK2, Homo sapiens, UniProt Q9H093) | 81 |
| Serine/threonine-protein kinase 33 (STK33, Homo sapiens, UniProt Q9BYT3) | 100 |
| Ephrin type-A receptor 6 (EPHA6, Homo sapiens, UniProt Q9UF33) | 95 |
| Serine/threonine-protein kinase tousled-like 1 (TLK1, Homo sapiens, UniProt Q9UKI8) | 100 |

Study 3
SMILES: CC(C)n1cnc(-c2ccc(F)cc2)c1-c1ncc(C(=O)Nc2ccc(N3CCN(C)CC3)cc2)[nH]1
Technique: phase 2a clinical trial
Species: idiopathic pulmonary fibrosis patients
| test | setting | how to read | patients with TEAEs |
| --- | --- | --- | --- |
| item: reproductive and breast disorders | 30 mg once daily, grade 5 maximum intensity |  | 0% |
| item: infections and infestations | 30 mg once daily, grade 3 maximum intensity | reference: patients | 1% |
| item: chest discomfort | 60 mg once daily, grade 1 maximum intensity | reference: patients | 1% |
| item: investigations (SOC) | dose not given, grade 3, all drug arms | reference: patients | 1% |
| item: chest discomfort | dose not given, grade 2, all drug arms | reference: patients | 1% |
| item: neoplasms (SOC) | 60 mg once daily, grade 4 maximum intensity |  | 0% |
| item: neutrophil count increased | 30 mg once daily, grade 1 maximum intensity | reference: patients | 1% |
| item: neoplasms (SOC) | 60 mg once daily, grade 3 maximum intensity |  | 0% |
| item: reproductive and breast disorders | 60 mg once daily, grade 5 maximum intensity |  | 0% |
| item: neoplasms (SOC) | dose not given, grade 3, all drug arms |  | 0% |

Study 4
Organism: Sarcocystis neurona
Effect on: parasite activity
Concentration: concentration not given
| Compound | activity class |
| --- | --- |
| N[C@H](Cc1cc(I)c(Oc2ccc(O)c(I)c2)c(I)c1)C(=O)O | inactive |
| CN(C)CCOc1ccc(/C(=C(/CCCl)c2ccccc2)c2ccccc2)cc1.O=C(O)CC(O)(CC(=O)O)C(=O)O | inactive |
| Cl.NC1CCN(c2cccc(Cl)n2)CC1 | inactive |
| Nc1nc(=O)[nH]cc1F | inactive |
| COc1cc(OC)c(C(=O)CCCN2CCCC2)c(OC)c1.Cl | inactive |
| Nc1ncnc2c1ncn2[C@@H]1O[C@H](CO)C[C@H]1O | inactive |

Mixed results
| SMILES | target or system | test | test system | setting | how to read | measurement | result |
| --- | --- | --- | --- | --- | --- | --- | --- |
| Ic1ccc(Nc2nc(NCCN3CCOCC3)nc(N3CCOCC3)n2)cc1 | L444P/L444P Gaucher fibroblasts | 4-MUG hydrolysis in lysate |  | 0.1 µM, 72 h | reference: vehicle | enzyme activity | 111% and 106% and 118% and 76.9% and 89.6% and 100% |
| Cc1ccc(NC(=O)c2ccnc(C(F)(F)F)c2)cc1-c1cc(OCCO)nc(N2CCOCC2)c1 | cAMP-dependent protein kinase catalytic subunit alpha (PRKACA, Homo sapiens, UniProt P17612) | cell-free assay |  | 1 µM |  | remaining signal | 71% |
| O=C(COc1ccc(Cl)cc1)NC1CCC(NC(=O)COc2ccc(Cl)cc2)CC1 (centres unmarked) | alpha-galactosidase (human) |  | healthy dermal fibroblasts | concentration not given | reference: DMSO | enzyme activity | 101% and 115% and 122% and 119% |
| c1ccc2c(-c3nn4c(-c5ccncc5)nnc4s3)c[nH]c2c1 | L444P/L444P Gaucher fibroblasts | 4-MUG hydrolysis in lysate |  | 0.1 µM, 72 h | reference: vehicle | enzyme activity | 160% and 112% and 146% and 143% and 131% and 133% and 150% |

Repeated from above (study 3):
| test | setting | how to read | patients with TEAEs |
| --- | --- | --- | --- |
| item: chest discomfort | dose not given, grade 2, all drug arms | reference: patients | 1% |
| item: neoplasms (SOC) | 60 mg once daily, grade 4 maximum intensity |  | 0% |
| item: neutrophil count increased | 30 mg once daily, grade 1 maximum intensity | reference: patients | 1% |
| item: reproductive and breast disorders | 60 mg once daily, grade 5 maximum intensity |  | 0% |
| item: neoplasms (SOC) | dose not given, grade 3, all drug arms |  | 0% |
| item: chest discomfort | 60 mg once daily, grade 1 maximum intensity | reference: patients | 1% |
